Literature values as cited in several papers.
Compare with care: the assays were run in different laboratories. Numbers after ± are the reported error.
Sequence of UniProt Q9NYL2 (whole entry, looked up): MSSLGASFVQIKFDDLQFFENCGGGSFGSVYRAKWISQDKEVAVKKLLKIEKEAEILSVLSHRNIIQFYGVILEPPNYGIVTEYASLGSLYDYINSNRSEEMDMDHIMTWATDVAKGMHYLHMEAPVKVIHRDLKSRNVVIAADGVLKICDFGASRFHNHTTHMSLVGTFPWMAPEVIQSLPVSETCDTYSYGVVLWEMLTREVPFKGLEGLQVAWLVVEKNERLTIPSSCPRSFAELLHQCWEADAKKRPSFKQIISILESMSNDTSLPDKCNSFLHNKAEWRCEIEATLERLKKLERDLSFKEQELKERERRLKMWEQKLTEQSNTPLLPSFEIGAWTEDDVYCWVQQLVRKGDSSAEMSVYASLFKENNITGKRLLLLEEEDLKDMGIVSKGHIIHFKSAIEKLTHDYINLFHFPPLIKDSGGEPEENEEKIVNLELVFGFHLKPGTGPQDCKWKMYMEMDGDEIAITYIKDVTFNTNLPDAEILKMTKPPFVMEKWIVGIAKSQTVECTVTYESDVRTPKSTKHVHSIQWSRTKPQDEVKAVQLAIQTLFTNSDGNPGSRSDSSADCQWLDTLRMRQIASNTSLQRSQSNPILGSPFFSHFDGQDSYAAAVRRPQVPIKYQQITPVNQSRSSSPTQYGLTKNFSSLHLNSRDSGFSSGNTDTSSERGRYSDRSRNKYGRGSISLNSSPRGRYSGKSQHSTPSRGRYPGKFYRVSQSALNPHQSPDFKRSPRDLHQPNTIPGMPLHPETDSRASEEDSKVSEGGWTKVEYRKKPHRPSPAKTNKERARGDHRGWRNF

CN(C)CCCN1c2ccccc2CCc2ccccc21
IC50 (sigma-1 receptor; literature value): 300 nM

CC(=O)N1CCc2c(c(N3CCCc4cc(-c5cnn(C)c5)c(C(F)F)cc43)nn2C2CCOCC2)C1
IC50 (mTOR): 280 nM

O=C(NCc1ccc(Cl)cc1)Nc1cccc2cnccc12
IC50 (TRPV1; calcium flux, antagonist; HEK293; together with: capsaicin): 6 nM

COC(=O)[C@@H](Cc1ccc(O)c(O)c1)OC(=O)/C=C/c1ccc(O)c(O)c1
IC50 (xanthine oxidase; inhibitor): 2310 ± 30 nM

Cc1[nH]c(/C=C2\C(=O)Nc3ccc(C(=O)N[C@H](C)c4ccc(F)cc4)cc32)c(C)c1NC(=O)CCl
IC50 (GRK2; kinase activity, inhibitor): 12000 nM

CCOc1c([C@H](C)n2nc(C)c3c(N)ncnc32)cc(Cl)c(F)c1[C@@H]1CNC(=O)C1
IC50 (PI3Kdelta): 1 nM

Nc1ncnc2c1ncn2[C@@H]1O[C@H](COP(=O)(O)CP(=O)(O)OP(=O)(O)O)[C@@H](O)[C@H]1O
IC50 (P2X purinergic receptor; binding; historical reference value): 82 nM

Nc1cc(C(F)(F)F)c(-c2nc(N3CCOCC3)nc(N3CCOCC3)n2)cn1
remaining activity (Mitogen-activated protein kinase kinase kinase 20 (MAP3K20, Homo sapiens, UniProt Q9NYL2); enzyme activity; 10 µM; relative to: untreated): 83%

COc1ccc(-c2ccc3ncc4c(c3c2)n(-c2ccc(N3CCNCC3)c(C(F)(F)F)c2)c(=O)n4C)cn1
IC50 (mTOR): 20 nM

CC(C)(C)c1ccc(NC(=O)c2ccc(-c3ncccc3N(S(C)(=O)=O)S(C)(=O)=O)cc2)cc1
IC50 (TRPV1; calcium flux, antagonist; HEK293; together with: capsaicin): 0.8 nM

C[C@H]1COCCN1c1nc(-c2cnc(N)cc2C(F)F)nc(N2CCOCC2)n1
GI50 (AU565): 212 nM

CC(C)(C)c1ccc(NC(=O)c2ccc(-c3ncccc3F)cc2)cc1
IC50 (TRPV1; calcium flux, antagonist; HEK293; together with: capsaicin): 3 nM

CNCc1cn(S(=O)(=O)c2cccc(F)c2)c(-c2ccc(F)cc2F)c1OC
IC50 (PEPT2; transport): 81800 nM

COC(=O)C1=CO[C@@H](O[C@@H]2O[C@H](CO)[C@@H](O)[C@H](O)[C@H]2O)[C@@H]2[C@@H](C)[C@@H](O)C[C@H]12
IC50 (BACE1; enzyme activity, non-competitive inhibitor): 48000 nM

CCOCC1(COCC)CCC(c2n[nH]cc2CN(C)CCNC)CC1
IC50 (CARM1 (PRMT4); enzyme activity, inhibitor): 38 nM

CO[C@@H]1COCC[C@@H]1N[C@@H]1C[C@H]2CCC[C@@]2(C(=O)N2C[C@@H]3C[C@H]2CN3c2cccc(OC(F)(F)F)c2)C1
IC50 (CCR2; 3D-QSAR training set): 148 nM

CC1(C)S[C@@H]2[C@H](NC(=O)[C@H](N)c3ccccc3)C(=O)N2[C@H]1C(=O)O
MIC (Klebsiella oxytoca; clinical isolate RKI 52/07): > 16 µg/mL

Fc1ccc([C@@H]2CCNC[C@H]2COc2ccc3c(c2)OCO3)cc1
IC50 (sigma-1 receptor; literature value): 1900 nM

CCCCCCCCCCCCCCOc1ccccc1NC(=O)c1ccccc1C(=O)O
IC50 (PTP1B; competitive inhibitor): 780 nM

C=CCn1c(=O)c2cnc(Nc3ccc(N4CCN(C)CC4)cc3)nc2n1-c1ccc2c(n1)[C@@](O)(CC)CC2
IC50 (WEE1 kinase): 3.8 nM

CC(C)(C)c1ccc(NC(=O)N2CCN(c3ncccc3Cl)CC2)cc1
IC50 (TRPV1; calcium flux, antagonist; HEK293; together with: capsaicin): 5 nM

O=c1[nH]nc(OCCCc2ccc(Cl)cc2)c(NCc2cccnc2)c1Br
IC50 (PDE3; enzyme activity, inhibitor): 0.26 nM

CN1C(C(=O)Nc2ccccn2)=C(O)c2sc(Cl)cc2S1(=O)=O
IC50 (NR4A3 (NOR-1); inverse agonist, cellular): 24000 ± 3000 nM

CC(C)C(=O)Nc1nc(-c2ccc(O)cc2O)cs1
IC50 (human tyrosinase; inhibitor): ~1000 nM

O=C(NCc1ccc(C(F)(F)F)cc1Oc1ccccc1)Nc1cccc2[nH]ncc12
IC50 (TRPV1; calcium flux, antagonist; HEK293; together with: capsaicin): 9 nM

NC(=O)C(NC1CCC(c2c[nH]c3ccccc23)CC1)C1CCN(C(=O)Nc2ccc(OC(F)(F)F)cc2)CC1 (centres unmarked)
IC50 (CCR2; 3D-QSAR training set): 264 nM

CN(C/C=C/C(=O)N1CCC[C@@H](n2nc(-c3ccc(Oc4ccccc4)cc3)c3c(N)ncnc32)C1)CCCNC(=O)CNc1cccc2c1C(=O)N(C1CCC(=O)NC1=O)C2=O (some centres unmarked)
IC50 (BTK; target engagement, NanoBRET; HEK-293T expressing BTK-NanoLuc; 2 h, together with: tracer 1 µM): 130 nM

COC(=O)c1cn(C)c2ccc(-c3cccnc3)cc12
IC50 (NR4A2 (Nurr1); inverse agonist, cellular): 3800 nM

COc1ccc(CNc2c(CO)cnc3c(C4CC4)cc(C#N)cc23)cc1Cl
IC50 (PDE4; inhibitor): > 10000 nM

CC[C@H](C)C(=O)N1CCC(NC(=O)Nc2c(F)cccc2F)CC1
IC50 (soluble epoxide hydrolase (rat); enzyme activity): 30000 nM

CO[C@@H]1COCC[C@@H]1N[C@@H]1C[C@H]2CCC[C@@]2(C(=O)N2C[C@@H]3C[C@H]2CN3c2cc(C#N)cc(C(F)(F)F)c2)C1
IC50 (CCR2; 3D-QSAR training set): 812 nM

O=C(O)/C=C/c1ccc(O)c(O)c1
IC50 (xanthine oxidase; inhibitor): 204000 ± 1200 nM

Cc1cccc(Cl)c1Nc1nc2c(Nc3ccc(C(F)(F)F)cc3)ncnc2s1
IC50 (TRPV1; calcium flux, antagonist; HEK293; together with: capsaicin): 9 nM

CC(C)=CCC/C(C)=C/CNCCNC1C2CC3CC(C2)CC1C3 (centres unmarked)
IC50 (Mycobacterium tuberculosis cis-farnesyl diphosphate synthase; enzyme activity, inhibitor): ≥ 50000 nM

CN1CCC[C@@H]1COc1nc(N2CCNCC2)c2cnc(-c3cc(O)cc4ccccc34)c(F)c2n1
IC50 (KRAS): 980 nM

O=C(c1ccc([N+](=O)[O-])cc1)N1CCC(n2cncc2-c2ccc(OS(=O)(=O)c3cccc4cnccc34)cc2)CC1
IC50 (P2X7 receptor; fluorescence): 1.49 ± 0.17 nM

CCN(CC)CCCCNc1ncc2cc(-c3cc(OC)cc(OC)c3)c(NC(=O)NC(C)(C)C)nc2n1
IC50 (Tie2; inhibitor): > 1000 nM

CCCCCOC(=O)/C=C/c1ccc(O)c(O)c1
IC50 (xanthine oxidase; inhibitor): 18000 ± 900 nM

O=C(CCc1ccc(Cl)c(Cl)c1)Nc1cccc2ccc(O)cc12
IC50 (TRPV1; calcium flux, antagonist; HEK293; together with: capsaicin): 17 nM

COc1cc2c(Nc3ccc(Cl)c(Cl)c3F)ncnc2cc1OC[C@@H]1C[C@@H]2CN(C)C[C@@H]2C1
IC50 (SRC): 10.3 nM

O=C(NCc1ccc(C(F)(F)F)nc1N1CCCCC1)Nc1cccc2[nH]ncc12
IC50 (TRPV1; calcium flux, antagonist; HEK293; together with: capsaicin): 3.5 nM

O=S(=O)(NCCNCC=Cc1ccc(Br)cc1)c1cccc2cnccc12
IC50 (PKA catalytic subunit alpha; Z’-LYTE; together with: 10 µM ATP): 18 nM

CC[C@]1(O)C[C@H]2CN(CCc3c([nH]c4ccccc34)[C@@](C(=O)OC)(c3cc4c(cc3OC)N(C=O)[C@H]3[C@@](O)(C(=O)OC)[C@H](OC(C)=O)[C@]5(CC)C=CCN6CC[C@]43[C@@H]65)C2)C1
IC50 (tubulin; tubulin binding; cell-free): 32000 nM

CNCCCN1c2ccccc2CCc2ccccc21
IC50 (sigma-1 receptor; literature value): 2000 nM

CN1[C@@H]2CC[C@H]1C[C@@H](OC(=O)[C@H](CO)c1ccccc1)C2
IC50 (acetylcholine receptor): 7.5 nM

CNC(C)C1CCC(N)C(OC2C(N)CC(N)C(OC3OCC(C)(O)C(NC)C3O)C2O)O1 (centres unmarked)
MIC (Escherichia coli; clinical isolate RKI-No_867/14): ≤ 0.5 µg/mL

CCN1CCN(Cc2ccc(Nc3nc4ccc(Oc5ccnc(NC(=O)C6CCN(C)CC6)c5)cc4n3C)cc2C(F)(F)F)CC1
IC50 (JAK2 (human); inhibitor): 8030 nM

C[C@H](NC(=O)[C@H](CC(=O)NCC(C)(C)C)NC(=O)c1ccc(C(=O)NO)cc1)C(=O)NCc1ccccc1
IC50 (proteasome; chymotrypsin-like activity, inhibitor; HL-60): 260 nM

O=C(O)c1cc(N2N=C(C(F)(F)F)/C(=C/c3ccc(-c4ccccc4)o3)C2=O)ccc1Cl
IC50 (ERO1α; inhibitor): 1900 nM

O=S(=O)(c1ccccc1)N(CC(F)(F)F)c1ccc(C(O)(C(F)(F)F)C(F)(F)F)cc1
IC50 (pregnane X receptor, human; binding): 102 nM

CO[C@H]1/C=C/O[C@@]2(C)Oc3c(C)c(O)c4c(O)c(c(/C=N/N5CCN(C)CC5)c(O)c4c3C2=O)NC(=O)/C(C)=C\C=C\[C@H](C)[C@H](O)[C@@H](C)[C@@H](O)[C@@H](C)[C@H](OC(C)=O)[C@@H]1C
IC50 (NTCP; inhibitor): 277000 nM

COc1ccnc2[nH]cc(-c3ccnc(N)n3)c12
IC50 (CDK2): 11 nM

Cc1onc(-c2ccccc2)c1-c1ccc(S(N)(=O)=O)cc1
IC50 (NR4A2 (Nurr1); inverse agonist, cellular): 13000 ± 3000 nM

Repeated from above:
COc1ccc(CNc2c(CO)cnc3c(C4CC4)cc(C#N)cc23)cc1Cl
IC50 (PDE4; inhibitor): > 10000 nM

CC[C@H](C)C(=O)N1CCC(NC(=O)Nc2c(F)cccc2F)CC1
IC50 (soluble epoxide hydrolase (rat); enzyme activity): 30000 nM

CO[C@@H]1COCC[C@@H]1N[C@@H]1C[C@H]2CCC[C@@]2(C(=O)N2C[C@@H]3C[C@H]2CN3c2cc(C#N)cc(C(F)(F)F)c2)C1
IC50 (CCR2; 3D-QSAR training set): 812 nM

O=C(O)/C=C/c1ccc(O)c(O)c1
IC50 (xanthine oxidase; inhibitor): 204000 ± 1200 nM

Cc1cccc(Cl)c1Nc1nc2c(Nc3ccc(C(F)(F)F)cc3)ncnc2s1
IC50 (TRPV1; calcium flux, antagonist; HEK293; together with: capsaicin): 9 nM
